Assay results collected from several papers.
Each line is one published result; not all experiments were run side by side. ± marks the error that the study gave.
inhA: Enoyl-[acyl-carrier-protein] reductase [NADH] (inhA, Mycobacterium tuberculosis, UniProt P9WGR1)

Protein sequences, listed by entry. Tags and fused reporters are not part of them. Residues count along the entry.
UniProt P9WGR1, whole entry: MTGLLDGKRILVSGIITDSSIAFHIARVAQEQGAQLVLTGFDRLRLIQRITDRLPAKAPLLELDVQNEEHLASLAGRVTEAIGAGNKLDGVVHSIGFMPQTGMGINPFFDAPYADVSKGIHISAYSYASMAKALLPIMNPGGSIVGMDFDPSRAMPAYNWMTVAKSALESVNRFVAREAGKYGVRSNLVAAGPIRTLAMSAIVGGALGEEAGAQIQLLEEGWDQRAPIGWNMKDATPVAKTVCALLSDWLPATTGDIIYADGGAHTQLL
UniProt P35372, whole entry, looked up: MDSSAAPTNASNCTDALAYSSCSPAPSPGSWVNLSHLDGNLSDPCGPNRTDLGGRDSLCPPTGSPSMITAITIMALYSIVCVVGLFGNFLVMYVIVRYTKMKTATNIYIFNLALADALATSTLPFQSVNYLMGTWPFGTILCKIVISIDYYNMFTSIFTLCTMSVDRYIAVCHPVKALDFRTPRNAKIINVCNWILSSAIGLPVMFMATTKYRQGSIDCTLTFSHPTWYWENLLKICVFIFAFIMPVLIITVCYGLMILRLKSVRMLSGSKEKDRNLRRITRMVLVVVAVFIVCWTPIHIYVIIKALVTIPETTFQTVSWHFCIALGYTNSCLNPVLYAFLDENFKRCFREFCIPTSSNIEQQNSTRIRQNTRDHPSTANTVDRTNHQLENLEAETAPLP
UniProt O42275, whole entry, looked up: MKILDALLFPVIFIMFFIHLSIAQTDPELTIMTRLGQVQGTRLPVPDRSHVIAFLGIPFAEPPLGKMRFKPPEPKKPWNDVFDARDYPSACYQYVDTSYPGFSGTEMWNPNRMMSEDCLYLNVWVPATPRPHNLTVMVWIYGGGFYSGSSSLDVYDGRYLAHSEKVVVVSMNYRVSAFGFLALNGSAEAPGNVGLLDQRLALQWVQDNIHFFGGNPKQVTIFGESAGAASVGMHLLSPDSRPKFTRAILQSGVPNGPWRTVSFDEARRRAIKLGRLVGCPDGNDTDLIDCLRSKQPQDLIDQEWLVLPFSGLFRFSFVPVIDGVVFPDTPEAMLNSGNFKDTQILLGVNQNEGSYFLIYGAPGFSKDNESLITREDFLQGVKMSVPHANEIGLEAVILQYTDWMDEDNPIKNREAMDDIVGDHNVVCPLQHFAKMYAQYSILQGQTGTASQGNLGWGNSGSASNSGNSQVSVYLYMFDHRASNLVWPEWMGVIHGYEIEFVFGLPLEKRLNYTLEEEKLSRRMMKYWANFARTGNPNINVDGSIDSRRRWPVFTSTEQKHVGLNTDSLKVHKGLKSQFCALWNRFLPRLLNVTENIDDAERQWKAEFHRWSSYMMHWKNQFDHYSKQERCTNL
UniProt P0C6Y4, 1686-1922 N1686S/I1722L/T1724W limits assumed: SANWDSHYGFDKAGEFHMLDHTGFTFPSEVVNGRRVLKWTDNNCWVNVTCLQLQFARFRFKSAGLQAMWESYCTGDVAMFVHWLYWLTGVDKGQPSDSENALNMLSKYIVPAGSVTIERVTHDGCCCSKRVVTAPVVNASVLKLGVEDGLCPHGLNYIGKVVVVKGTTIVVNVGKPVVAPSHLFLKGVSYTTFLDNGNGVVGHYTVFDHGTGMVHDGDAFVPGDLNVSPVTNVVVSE
UniProt P06730, whole entry: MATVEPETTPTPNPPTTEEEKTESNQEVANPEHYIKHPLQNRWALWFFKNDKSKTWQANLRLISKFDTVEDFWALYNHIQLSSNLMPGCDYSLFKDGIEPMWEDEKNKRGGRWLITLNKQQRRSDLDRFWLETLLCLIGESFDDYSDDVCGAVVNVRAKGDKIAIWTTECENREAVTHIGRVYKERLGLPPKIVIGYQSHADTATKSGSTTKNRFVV
UniProt P41145, whole entry: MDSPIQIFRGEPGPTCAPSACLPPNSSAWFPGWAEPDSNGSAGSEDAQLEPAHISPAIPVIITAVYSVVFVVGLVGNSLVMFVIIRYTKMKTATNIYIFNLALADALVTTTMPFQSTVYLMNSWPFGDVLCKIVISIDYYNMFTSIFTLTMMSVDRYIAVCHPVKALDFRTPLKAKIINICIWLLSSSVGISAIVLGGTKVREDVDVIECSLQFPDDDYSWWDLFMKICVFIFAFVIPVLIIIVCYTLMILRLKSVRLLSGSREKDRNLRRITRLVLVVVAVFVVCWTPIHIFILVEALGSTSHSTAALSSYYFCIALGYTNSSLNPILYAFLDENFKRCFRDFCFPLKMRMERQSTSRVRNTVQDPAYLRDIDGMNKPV
UniProt P22303, whole entry, looked up: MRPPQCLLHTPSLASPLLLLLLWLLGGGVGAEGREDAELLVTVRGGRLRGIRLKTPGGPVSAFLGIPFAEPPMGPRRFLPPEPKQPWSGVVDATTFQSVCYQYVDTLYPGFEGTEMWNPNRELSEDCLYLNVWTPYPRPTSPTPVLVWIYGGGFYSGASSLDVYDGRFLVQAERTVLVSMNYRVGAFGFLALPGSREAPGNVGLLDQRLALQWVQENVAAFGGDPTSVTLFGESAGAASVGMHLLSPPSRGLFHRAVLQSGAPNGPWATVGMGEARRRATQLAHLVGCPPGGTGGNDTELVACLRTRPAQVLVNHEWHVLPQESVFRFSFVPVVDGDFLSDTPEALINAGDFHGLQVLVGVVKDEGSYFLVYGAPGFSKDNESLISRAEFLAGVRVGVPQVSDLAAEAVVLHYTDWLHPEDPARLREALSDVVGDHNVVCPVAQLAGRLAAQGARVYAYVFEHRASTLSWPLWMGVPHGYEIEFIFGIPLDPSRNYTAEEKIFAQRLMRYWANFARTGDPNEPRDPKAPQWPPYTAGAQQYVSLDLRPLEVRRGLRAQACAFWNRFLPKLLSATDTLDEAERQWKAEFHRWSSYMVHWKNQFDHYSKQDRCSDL
UniProt Q9GZZ6, 25-450 limits assumed: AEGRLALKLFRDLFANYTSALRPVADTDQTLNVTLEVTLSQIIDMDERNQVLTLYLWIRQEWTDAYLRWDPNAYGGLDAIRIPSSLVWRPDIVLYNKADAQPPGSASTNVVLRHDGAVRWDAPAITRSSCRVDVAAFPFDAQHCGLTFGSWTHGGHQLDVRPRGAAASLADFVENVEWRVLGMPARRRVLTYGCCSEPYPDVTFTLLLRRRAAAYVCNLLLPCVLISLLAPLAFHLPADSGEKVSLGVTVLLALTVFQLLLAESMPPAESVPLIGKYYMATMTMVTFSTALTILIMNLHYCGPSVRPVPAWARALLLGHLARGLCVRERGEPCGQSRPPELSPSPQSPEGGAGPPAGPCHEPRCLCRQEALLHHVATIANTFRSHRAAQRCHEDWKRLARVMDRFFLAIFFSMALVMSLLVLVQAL
UniProt Q9UGM1, 26-479 limits assumed: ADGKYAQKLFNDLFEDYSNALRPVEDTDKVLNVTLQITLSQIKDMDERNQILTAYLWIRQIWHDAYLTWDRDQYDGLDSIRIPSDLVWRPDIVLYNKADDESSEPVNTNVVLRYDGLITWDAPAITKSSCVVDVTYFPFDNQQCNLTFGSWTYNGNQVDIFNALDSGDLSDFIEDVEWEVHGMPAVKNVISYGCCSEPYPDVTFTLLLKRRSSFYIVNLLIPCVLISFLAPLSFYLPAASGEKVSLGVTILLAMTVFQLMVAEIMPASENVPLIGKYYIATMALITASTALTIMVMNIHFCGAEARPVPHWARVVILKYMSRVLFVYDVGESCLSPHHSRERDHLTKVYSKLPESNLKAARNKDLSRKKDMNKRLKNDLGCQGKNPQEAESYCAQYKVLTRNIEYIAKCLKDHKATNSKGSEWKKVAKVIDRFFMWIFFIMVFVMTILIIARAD
UniProt P20309, whole entry: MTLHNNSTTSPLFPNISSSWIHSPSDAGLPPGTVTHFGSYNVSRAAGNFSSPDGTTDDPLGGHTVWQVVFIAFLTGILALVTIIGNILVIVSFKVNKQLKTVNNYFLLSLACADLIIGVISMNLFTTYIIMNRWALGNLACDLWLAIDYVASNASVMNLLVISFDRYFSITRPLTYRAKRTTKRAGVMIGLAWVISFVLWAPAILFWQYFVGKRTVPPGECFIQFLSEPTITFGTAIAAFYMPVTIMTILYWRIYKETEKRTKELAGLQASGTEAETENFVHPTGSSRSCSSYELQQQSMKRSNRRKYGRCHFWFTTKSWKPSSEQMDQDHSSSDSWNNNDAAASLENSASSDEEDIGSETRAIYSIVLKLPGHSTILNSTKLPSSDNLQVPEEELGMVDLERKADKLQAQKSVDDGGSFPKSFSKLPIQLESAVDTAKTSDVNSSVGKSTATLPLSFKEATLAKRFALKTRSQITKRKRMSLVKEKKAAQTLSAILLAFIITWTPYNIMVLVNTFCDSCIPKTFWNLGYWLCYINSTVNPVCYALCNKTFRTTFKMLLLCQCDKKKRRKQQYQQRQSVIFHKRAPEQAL

COC(=O)[C@@H]1C=C(OC(=O)c2cccc(O)c2)C(=O)[C@H]2[C@@]1(C)CC[C@H]1C(=O)O[C@H](c3ccoc3)C[C@]21C — bias factor (Mu-type opioid receptor, with beta-arrestin-2 (OPRM1, Homo sapiens, UniProt P35372); β-arrestin-2 vs cAMP, agonist; baseline: DAMGO, higher = β-arrestin-2 bias): 1.98
O=C(C1CCN(Cc2cccc3ccccc23)CC1)N1CCc2ccccc2C1 — Vmax (ache (Electrophorus electricus, UniProt O42275); enzyme activity, inhibitor, Ellman; 300 µM, added: acetylthiocholine iodide): 0.032 absorbance units/min
CC[C@H](C)[C@H](NC(=O)[C@@H]1CCCN1C(=O)[C@H](C)NC(=O)CNC(=O)CNC(=O)[C@H](CCCCN)NC(=O)[C@H](CC(C)C)NC(=O)[C@H](CCCNC(=N)N)NC(=O)[C@H](Cc1ccccc1)NC(=O)c1ccc(N=Nc2ccc(N(C)C)cc2)cc1)C(=O)N[C@@H](CCCCN)C(=O)NCC(=O)N[C@H](C(=O)NCCNc1cccc2c(S(=O)(=O)O)cccc12)C(C)C — Km (Replicase polyprotein 1ab, papain-like protease 2 (rep, Porcine epidemic diarrhea virus, UniProt P0C6Y4, I1722L/N1686S/T1724W); substrate): 32.1 ± 12 µM
Cc1ccc(-c2csc(NP(=O)(O)OCC3OC(n4c[n+](Cc5ccccc5)c5c(=O)[nH]c(NC(=O)c6ccccc6)nc54)C4OC(C)(C)OC34)n2)cc1 (stereo not drawn) — protein level (Eukaryotic translation initiation factor 4E, phosphorylated (EIF4E, Homo sapiens, UniProt P06730); measured: EIF4E; MCF7): 3.2 ng/mL
NC[C@@H](NC[C@@H]1CCCN1C[C@@H](CO)NC[C@@H](NCCC1CC2CCC1C2)c1ccccc1)c1ccccc1 (stereo partly drawn) — potentiation of amikacin (Klebsiella pneumoniae; bacterial growth; 16 µM, fold shift of IC50, added: amikacin): 2.7 fold
[11CH3]Nc1ccc(C(=O)C2CCN(C3Cc4ccccc4CC3O)CC2)cc1 (single isomer, unassigned) — time to peak radioactivity (microPET; cynomolgus monkey, male, brain; dose not given): 10 min
Oc1cccc2c1OC1CCCC3CN(CC4CC4)CCC231 (single isomer, unassigned) — Emax (OPRK1 (Homo sapiens, UniProt P41145); partial agonist): 23 ± 1%
CC(CCN[C@H](CN[C@H](CO)CN1CCC[C@H]1CN[C@H](CN)c1ccccc1)c1ccccc1)c1ccccc1 (stereo partly drawn) — potentiation of amikacin (Acinetobacter baumannii; bacterial growth; 8 µM, fold shift of IC90, added: amikacin): 1.7 fold
C[C@H](CS)C(=O)N[C@@H](Cc1c[nH]c2ccccc12)C(=O)O — MIC of meropenem (Escherichia coli; VIM-1 producing; 50 µM, added: meropenem): 8 µg/mL
N#Cc1ccccc1Oc1ccc(Cn2cc(C3CC3)nn2)cc1O — reverse isomerization rate k6 (inhA; 20 °C, EI* to EI): 0.0052 ± 0.0002 min⁻¹
c1cc[n+](CCCCCCCCCC[n+]2ccccc2)cc1 — selectivity ratio (ACHE (Homo sapiens, UniProt P22303); baseline: BChE IC50 over AChE IC50): 12.5
CSCC[C@H](NC(=O)[C@H](Cc1ccccc1)NC(=O)CNC(=O)CNC(=O)[C@@H](N)Cc1ccc(O)cc1)C(=O)O — kcat (aminopeptidase III peak, rat; substrate; MW 110 kDa, added: NAP-2): 2.6 s⁻¹
C[C@@H]1NC(=O)[C@H](CCCNC(=N)N)NC(=O)[C@H](CCCNC(=N)N)NC(=O)[C@@H]2CCCN2C(=O)[C@H](CO)NC(=O)[C@@H]2CSSC[C@H](NC(=O)CN)C(=O)N[C@@H](CSSC[C@@H](C(N)=O)NC(=O)[C@H](CO)NC(=O)[C@H](CCCNC(=N)N)NC1=O)C(=O)N[C@@H](CO)C(=O)N[C@@H](Cc1c[nH]cn1)C(=O)N1CCC[C@H]1C(=O)N[C@@H](C)C(=O)N2 — recovery of response (Neuronal acetylcholine receptor; alpha9/alpha10 (Homo sapiens, UniProt Q9GZZ6+Q9UGM1); ion current, antagonist; Xenopus oocytes; 10 µM, 5 min, after washout, added: acetylcholine; baseline: control): 3 ± 2%
NCCNCCSc1ccccc1 — pKa (spectrophotometry; pH 6.0): 6
N#Cc1ccccc1Oc1ccc(Cn2cc(C3CCCC3)nn2)cc1O — residence time (inhA; enzyme inhibition, inhibitor, progress curve analysis; 20 °C): 106 ± 21 min
CN1CC[C@]23c4c5ccc(O)c4O[C@H]2c2ncc(-c4ccc(Cl)cc4)cc2C[C@@]3(OCCCc2ccccc2)[C@H]1C5 — days to zero efficacy (tolerance; CD-1 mouse, chemotherapy-induced neuropathy; sc, 1 mg/kg twice daily, 4 days): 2.3 days
Oc1cc(Cn2cc(C3CC3)nn2)ccc1Oc1ccccc1Cl — residence time (inhA; enzyme inhibition, inhibitor, progress curve analysis; 20 °C): 220 ± 49 min
COc1ccc(CN[C@@H]2CO[C@H](C(c3ccccc3)c3ccccc3)C[C@H]2O)cc1 — inhibition (CHRM3 (Homo sapiens, UniProt P20309); radioligand binding; 10 µM, added: [3H]QNB): -3.1%
